Experimental data from different studies.
± marks the error that the study gave. ≈ marks a conversion by molar mass, not a printed value.

SMILES	target or system	test	system	setting	quantity	result
CC[C@H](C)[C@H](NC(=O)[C@H](CCCN)NC(=O)[C@H](CC(=O)O)NC(=O)[C@H](CC(C)C)NC(=O)C(C)(CC(C)C)NC(=O)[C@@H](NC(=O)[C@H](CO)NC(=O)[C@H](Cc1ccc(O)cc1)NC(=O)[C@H](CC(=O)O)NC(=O)[C@H](CO)NC(=O)[C@@H](NC(=O)[C@H](Cc1ccccc1)NC(=O)[C@@H](NC(=O)CNC(=O)[C@H](CCC(=O)O)NC(=O)C(C)(C)NC(=O)[C@@H](N)Cc1ccc(O)cc1)[C@@H](C)O)[C@@H](C)CC)[C@@H](C)CC)C(=O)N[C@@H](Cc1c[nH]cn1)C(=O)N[C@@H](CCC(N)=O)C(=O)NC(C)(C)C(=O)N[C@@H](CC(=O)O)C(=O)N[C@@H](Cc1ccccc1)C(=O)N[C@H](C(=O)N[C@@H](CCC(=O)O)C(=O)N[C@@H](Cc1ccc(O)cc1)C(=O)N[C@@H](CCCCNC(=O)COCCOCCNC(=O)COCCOCCNC(=O)CC[C@H](NC(=O)CCCCCCCCCCCCCCCCCCC(=O)O)C(=O)O)C(=O)N[C@@H](CC(C)C)C(=O)N[C@@H](CCC(=O)O)C(=O)NCC(=O)NCC(=O)N1CCC[C@H]1C(=O)N[C@@H](CO)C(=O)N[C@@H](CO)C(=O)NCC(=O)N[C@@H](C)C(=O)N1CCC[C@H]1C(=O)N1CCC[C@H]1C(=O)N1CCC[C@H]1C(=O)N[C@@H](CO)C(N)=O)C(C)C (stereo partly drawn)	–	–	human	subcutaneous, 0.3 to 25 mg single dose, median	tmax	12 to 84 h
Cc1cc(C)cc(S(=O)(=O)c2c(C(N)=O)[nH]c3ccc(Cl)cc23)c1	HIV-1	viral replication	MT-4, F227L/V106A mutant	–	EC50	47 ± 23 nM
CC(C)N1CCn2cc(C(=O)NCc3ccc(F)cc3F)c(=O)c(O)c2C1=O	HIV-1	viral replication, single-round vector infection	IN L74M/G140C/Q148R	–	EC50	102 ± 5.5 nM
Cc1cccc(-c2cc(C#N)cc(Oc3c(C(F)(F)F)ccn(Cc4n[nH]c(=O)n4C)c3=O)c2)c1	HIV-1	viral cytopathicity	MT4, L100I mutant	–	EC50	24 ± 4.9 nM
CC[C@H](C)[C@H](NC(=O)[C@H](CCCCN)NC(=O)[C@H](CCCCN)NC(=O)[C@H](CC(C)C)NC(=O)[C@H](Cc1c[nH]c2ccccc12)NC(=O)CN)C(=O)NCC(=O)N[C@@H](CCCCN)C(=O)N[C@@H](CCCCN)C(=O)N[C@H](C(=O)N[C@@H](CCC(=O)O)C(=O)N[C@@H](CCCNC(=N)N)C(=O)N[C@H](C(=O)NCC(=O)N[C@@H](CCC(N)=O)C(=O)N[C@@H](Cc1c[nH]cn1)C(=O)N[C@H](C(=O)N[C@@H](CCCNC(=N)N)C(=O)N[C@@H](CC(=O)O)C(=O)N[C@@H](C)C(=O)N[C@H](C(=O)N[C@H](C(=O)N[C@@H](CCC(N)=O)C(=O)N[C@H](C(=O)N[C@H](C(=O)NCC(=O)N[C@H](C(=O)N[C@@H](C)C(=O)N[C@@H](CCC(N)=O)C(=O)N[C@@H](CCC(N)=O)C(=O)N[C@@H](C)C(=O)N[C@@H](C)C(=O)N[C@@H](CC(N)=O)C(=O)N[C@H](C(=O)N[C@@H](C)C(=O)N[C@@H](C)C(=O)N[C@H](C(=O)N[C@@H](CC(C)C)C(=O)N[C@@H](CCCCN)C(N)=O)[C@@H](C)O)C(C)C)C(C)C)[C@@H](C)CC)[C@@H](C)O)[C@@H](C)CC)[C@@H](C)O)[C@@H](C)O)C(C)C)[C@@H](C)CC	Klebsiella pneumoniae	–	DSM 30104, CAMHB with 10% mouse serum	150 mM NaCl	MIC	4 mg/L (≈ 0.952 µM)
Cc1cc(/C=C/C#N)cc(C)c1-n1cnc2cnc(Nc3ccc(C#N)cc3)nc21	HIV-1	viral replication, single-round infection	RT mutant Y181C	–	EC50	6.5 ± 0.2 nM
O=C(NCc1ccc(F)cc1F)c1cc2cccnc2n(O)c1=O	HIV-1	viral replication	infected cells, integrase N155H mutant	–	EC50	134 ± 23 nM
Cc1cc(C)cc(S(=O)(=O)c2c(C(=O)NC3CC4(C3)CN(Cc3n[nH]c(=O)[nH]3)C4)[nH]c3ccc(Cl)cc23)c1	HIV-1	viral replication	MT-4, K103N mutant	–	EC50	56 ± 5 nM
Cc1cc(/C=C/C#N)cc(C)c1Nc1nc(Nc2ccc(C#N)cc2)ncc1N	HIV-1	viral replication, single-round infection	RT mutant Y188L	–	EC50	2.9 ± 0.2 nM
CCCCCCCCCCCCCCCC(=O)N[C@@H](CCC(=O)NCCOCCOCCC(=O)NCCOCCOCCC(=O)NCCCC[C@H](NC(=O)[C@H](CC(=O)O)NC(=O)[C@H](CC(C)C)NC(=O)[C@H](Cc1ccc(O)cc1)NC(=O)[C@H](CCCCN)NC(=O)[C@H](CO)NC(=O)[C@H](Cc1ccc(O)cc1)NC(=O)[C@H](CC(=O)O)NC(=O)[C@H](CO)NC(=O)[C@@H](NC(=O)[C@H](Cc1ccccc1)NC(=O)[C@@H](NC(=O)CNC(=O)[C@H](CCC(N)=O)NC(=O)[C@@H](CO)NC(=O)[C@@H](N)Cc1c[nH]cn1)[C@@H](C)O)[C@@H](C)O)C(=O)N[C@@H](CCCNC(=N)N)C(=O)N[C@@H](CCCNC(=N)N)C(=O)N[C@@H](C)C(=O)N[C@@H](CCC(N)=O)C(=O)N[C@@H](CC(=O)O)C(=O)N[C@@H](Cc1ccccc1)C(=O)N[C@H](C(=O)N[C@@H](CCC(N)=O)C(=O)N[C@@H](Cc1c[nH]c2ccccc12)C(=O)N[C@@H](CC(C)C)C(=O)N[C@@H](CC(C)C)C(=O)N[C@@H](CC(N)=O)C(=O)N[C@H](C(=O)NCC(=O)NCC(=O)N1CCC[C@H]1C(=O)N[C@@H](CO)C(=O)N[C@@H](CO)C(=O)NCC(=O)N[C@@H](C)C(=O)N1CCC[C@H]1C(=O)N1CCC[C@H]1C(=O)N1CCC[C@H]1C(=O)N[C@@H](CO)C(N)=O)[C@@H](C)O)C(C)C)C(=O)O	–	item: CK	Sprague-Dawley rat, female	subcutaneous, 500 µg/kg once daily, 14 days	serum enzyme activity	525 ± 343 U/L
CC(C)n1ccn2cc(C(=O)NCc3ccc(F)cc3F)c(=O)c(O)c2c1=O	HIV-1	viral replication, single-round vector infection	IN G140A/Q148K	–	EC50	208 ± 61.2 nM
CCCCCCCCCCCCCCCC(=O)N[C@@H](CCC(=O)NCCCC[C@H](NC(=O)[C@H](CC(=O)O)NC(=O)[C@H](CO)NC(=O)[C@@H](NC(=O)[C@H](Cc1ccccc1)NC(=O)[C@@H](NC(=O)CNC(=O)[C@H](CCC(N)=O)NC(=O)[C@H](C)NC(=O)[C@@H](Cc1ccc(O)cc1)NC(C)=O)[C@@H](C)O)[C@@H](C)O)C(=O)N[C@@H](CO)C(=O)N[C@@H](CCCCN)C(=O)N[C@@H](Cc1ccc(O)cc1)C(=O)N[C@@H](CC(C)C)C(=O)N[C@@H](CC(=O)O)C(=O)N[C@@H](CCC(=O)O)C(=O)N[C@@H](CCCNC(=N)N)C(=O)N[C@@H](C)C(=O)N[C@@H](C)C(=O)N[C@@H](CCC(N)=O)C(=O)N[C@@H](CC(=O)O)C(=O)N[C@@H](Cc1ccccc1)C(=O)N[C@H](C(=O)N[C@@H](CCC(N)=O)C(=O)N[C@@H](Cc1c[nH]c2ccccc12)C(=O)N[C@@H](CC(C)C)C(=O)N[C@@H](CC(C)C)C(=O)N[C@@H](CCC(=O)O)C(=O)NCC(=O)NCC(=O)N1CCC[C@H]1C(=O)N[C@@H](CO)C(=O)N[C@@H](CO)C(=O)NCC(=O)N[C@@H](C)C(=O)N1CCC[C@H]1C(=O)N1CCC[C@H]1C(=O)N1CCC[C@H]1C(=O)N[C@@H](CO)C(N)=O)C(C)C)C(=O)O	–	–	Wistar rat, male	intravenous, 0.02 mg/kg	central volume of distribution	0.058 L/kg

Some of these lines once more:
SMILES	target or system	test	system	setting	quantity	result
CC(C)n1ccn2cc(C(=O)NCc3ccc(F)cc3F)c(=O)c(O)c2c1=O	HIV-1	viral replication, single-round vector infection	IN G140A/Q148K	–	EC50	208 ± 61.2 nM
